Results pooled from the literature.
Protocols differ between the studies behind these lines. Numbers after ± are the reported error.
Observed: binding
Alpha-mannosidase: Alpha-mannosidase (Canavalia ensiformis, UniProt C0HJB3)
Chain of UniProt C0HJB3 (whole entry, looked up): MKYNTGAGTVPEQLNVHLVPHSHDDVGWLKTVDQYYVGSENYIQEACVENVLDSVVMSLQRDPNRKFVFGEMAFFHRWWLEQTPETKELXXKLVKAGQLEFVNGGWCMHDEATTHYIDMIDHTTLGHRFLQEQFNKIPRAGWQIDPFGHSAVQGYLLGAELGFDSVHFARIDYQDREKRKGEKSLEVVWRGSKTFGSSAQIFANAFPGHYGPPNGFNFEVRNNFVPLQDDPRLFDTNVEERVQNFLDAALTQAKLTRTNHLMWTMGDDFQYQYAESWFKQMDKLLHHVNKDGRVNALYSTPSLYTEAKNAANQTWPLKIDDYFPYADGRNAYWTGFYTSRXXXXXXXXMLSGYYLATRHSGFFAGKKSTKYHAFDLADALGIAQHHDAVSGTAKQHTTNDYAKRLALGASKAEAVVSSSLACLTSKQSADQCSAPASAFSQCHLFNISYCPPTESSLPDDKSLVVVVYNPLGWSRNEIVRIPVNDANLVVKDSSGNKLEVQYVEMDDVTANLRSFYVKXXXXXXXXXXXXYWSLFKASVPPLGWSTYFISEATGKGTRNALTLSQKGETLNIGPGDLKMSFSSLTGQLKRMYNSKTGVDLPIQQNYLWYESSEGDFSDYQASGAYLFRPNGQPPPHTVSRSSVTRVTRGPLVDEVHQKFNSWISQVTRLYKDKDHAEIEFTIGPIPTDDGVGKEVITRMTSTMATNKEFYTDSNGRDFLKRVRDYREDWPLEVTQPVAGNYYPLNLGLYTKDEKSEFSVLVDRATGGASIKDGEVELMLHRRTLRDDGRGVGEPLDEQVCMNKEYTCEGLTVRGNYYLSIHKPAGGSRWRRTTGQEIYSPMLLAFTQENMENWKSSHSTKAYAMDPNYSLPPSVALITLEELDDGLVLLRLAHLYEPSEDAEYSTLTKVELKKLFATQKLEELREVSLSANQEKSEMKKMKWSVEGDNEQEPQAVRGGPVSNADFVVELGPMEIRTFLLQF
ACTA1: Actin, alpha skeletal muscle (ACTA1, Oryctolagus cuniculus, UniProt P68135)
PTH1R: Parathyroid hormone/parathyroid hormone-related peptide receptor (PTH1R, Homo sapiens, UniProt Q03431)
Chain of UniProt Q03431 (whole entry, looked up): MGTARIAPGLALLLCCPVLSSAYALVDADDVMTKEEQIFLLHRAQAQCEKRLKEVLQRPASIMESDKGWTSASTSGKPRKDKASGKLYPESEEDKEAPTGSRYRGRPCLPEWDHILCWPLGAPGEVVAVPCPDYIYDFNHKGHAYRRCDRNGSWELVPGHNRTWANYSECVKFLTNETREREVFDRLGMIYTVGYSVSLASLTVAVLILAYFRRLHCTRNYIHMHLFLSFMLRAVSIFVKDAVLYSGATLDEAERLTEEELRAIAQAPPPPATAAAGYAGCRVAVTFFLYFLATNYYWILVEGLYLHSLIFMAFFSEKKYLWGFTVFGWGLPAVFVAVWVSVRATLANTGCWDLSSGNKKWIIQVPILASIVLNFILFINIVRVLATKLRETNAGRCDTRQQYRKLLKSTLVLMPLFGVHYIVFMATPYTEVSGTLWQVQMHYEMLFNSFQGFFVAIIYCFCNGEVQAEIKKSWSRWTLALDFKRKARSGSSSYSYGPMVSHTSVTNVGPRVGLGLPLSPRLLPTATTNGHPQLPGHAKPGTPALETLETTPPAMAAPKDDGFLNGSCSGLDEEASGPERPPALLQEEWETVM
Chain of UniProt Q7XKC8 (whole entry, looked up): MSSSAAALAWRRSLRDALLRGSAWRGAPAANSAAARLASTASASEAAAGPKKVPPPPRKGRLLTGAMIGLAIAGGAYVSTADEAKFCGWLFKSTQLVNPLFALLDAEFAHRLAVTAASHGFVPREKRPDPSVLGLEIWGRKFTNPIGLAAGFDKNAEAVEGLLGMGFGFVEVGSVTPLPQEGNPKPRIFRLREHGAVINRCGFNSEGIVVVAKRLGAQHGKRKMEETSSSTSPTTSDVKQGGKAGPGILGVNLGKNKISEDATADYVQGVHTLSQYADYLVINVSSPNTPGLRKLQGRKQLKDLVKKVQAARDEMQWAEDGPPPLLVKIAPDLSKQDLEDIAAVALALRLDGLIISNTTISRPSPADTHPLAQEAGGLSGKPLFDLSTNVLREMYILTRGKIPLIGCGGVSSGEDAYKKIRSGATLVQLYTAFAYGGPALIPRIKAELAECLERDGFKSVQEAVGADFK
Chain of UniProt P51686 (whole entry, looked up): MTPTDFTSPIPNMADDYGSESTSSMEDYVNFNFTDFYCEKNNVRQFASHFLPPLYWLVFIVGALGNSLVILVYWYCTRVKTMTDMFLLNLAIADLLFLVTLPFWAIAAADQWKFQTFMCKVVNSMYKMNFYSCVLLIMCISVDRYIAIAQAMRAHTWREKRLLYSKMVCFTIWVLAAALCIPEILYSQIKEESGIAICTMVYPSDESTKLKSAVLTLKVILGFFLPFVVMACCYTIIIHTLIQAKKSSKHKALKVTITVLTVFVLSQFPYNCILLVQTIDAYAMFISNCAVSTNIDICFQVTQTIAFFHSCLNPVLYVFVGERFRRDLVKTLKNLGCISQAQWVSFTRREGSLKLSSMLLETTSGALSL

target	assay	setting	koff [s⁻¹]	SMILES
Alpha-mannosidase	surface plasmon resonance	25 °C	0.00705	O=C(CCO)c1ccc(O)cc1
ACTA1	SPR	pH 7	0.0172	CC(C)[C@H](NC(=O)[C@H](CCCCN)NC(=O)[C@H](C)NC(=O)[C@H](CCCCN)NC(=O)CNC(=O)[C@H](CCCNC(=N)N)NC(=O)[C@@H](NC(=O)[C@H](CCCCN)NC(=O)[C@@H](N)CO)[C@@H](C)O)C(=O)N[C@H](C(=O)NCC(=O)N[C@@H](CS)C(=O)N[C@@H](Cc1c[nH]c2ccccc12)C(=O)N[C@@H](CCCCN)C(=O)O)[C@@H](C)O
PTH1R	NanoBRET	pH 5.5, acetate buffer	0.088 ± 0.04	CSCC[C@H](NC(=O)[C@H](CC(C)C)NC(=O)[C@H](CCC(N)=O)NC(=O)[C@H](Cc1c[nH]cn1)NC(=O)[C@H](CCC(=O)O)NC(=O)[C@H](CO)NC(=O)[C@@H](NC(=O)[C@@H](N)CO)C(C)C)C(=O)N[C@@H](Cc1c[nH]cn1)C(=O)N[C@@H](CC(N)=O)C(=O)N[C@@H](CC(C)C)C(=O)NCC(=O)N[C@@H](CCCCN)C(=O)N[C@@H](Cc1c[nH]cn1)C(=O)N[C@@H](CC(C)C)C(=O)N[C@@H](CC(N)=O)C(=O)N[C@@H](CO)C(=O)N[C@@H](CCSC)C(=O)N[C@@H](CCC(=O)O)C(=O)N[C@@H](CCCNC(=N)N)C(=O)N[C@H](C(=O)N[C@@H](CCC(=O)O)C(=O)N[C@@H](Cc1c[nH]c2ccccc12)C(=O)N[C@@H](CC(C)C)C(=O)N[C@@H](CCCNC(=N)N)C(=O)N[C@@H](CCCCN)C(=O)N[C@@H](CCCCN)C(=O)N[C@@H](CC(C)C)C(=O)N[C@@H](CCC(N)=O)C(=O)N[C@@H](CC(=O)O)C(=O)N[C@H](C(=O)N[C@@H](Cc1c[nH]cn1)C(=O)N[C@@H](CC(N)=O)C(=O)N[C@@H](Cc1ccccc1)C(=O)N[C@@H](CCCCNC(=O)c1ccc2c(c1)C1(OC2=O)c2ccc(N(C)C)cc2Oc2cc(N(C)C)ccc21)C(N)=O)C(C)C)C(C)C
Alpha-mannosidase	surface plasmon resonance	25 °C	0.00665	COc1cc(C(O)C(CO)c2ccc(O)c(OC)c2)ccc1O (stereo not drawn)
PYRD (Oryza sativa, UniProt Q7XKC8)	SPR		0.151	CN1C[C@H](c2cccc(C(F)(F)F)c2)[C@@H](C(=O)Nc2ccccc2F)C1=O
Alpha-mannosidase	surface plasmon resonance	25 °C	0.00437	CC(=O)C=C=C1C(C)(C)C[C@H](O)C[C@@]1(C)O
PTH1R	NanoBRET	pH 6.5, MES buffer	0.0049 ± 0.001	CC[C@H](C)[C@H](NC(=O)[C@H](CCC(=O)O)NC(=O)[C@H](CO)NC(=O)[C@@H](NC(=O)[C@@H](N)CO)C(C)C)C(=O)N[C@@H](CCC(N)=O)C(=O)N[C@@H](CC(C)C)C(=O)N[C@@H](CCSC)C(=O)N[C@@H](Cc1c[nH]cn1)C(=O)N[C@@H](CC(N)=O)C(=O)N[C@@H](CC(C)C)C(=O)NCC(=O)N[C@@H](CCCCN)C(=O)N[C@@H](Cc1c[nH]cn1)C(=O)N[C@@H](CC(C)C)C(=O)N[C@@H](CC(N)=O)C(=O)N[C@@H](CO)C(=O)N[C@@H](CCSC)C(=O)N[C@@H](CCC(=O)O)C(=O)N[C@@H](CCCNC(=N)N)C(=O)N[C@H](C(=O)N[C@@H](CCC(=O)O)C(=O)N[C@@H](Cc1c[nH]c2ccccc12)C(=O)N[C@@H](CC(C)C)C(=O)N[C@@H](CCCNC(=N)N)C(=O)N[C@@H](CCCCN)C(=O)N[C@@H](CCCCN)C(=O)N[C@@H](CC(C)C)C(=O)N[C@@H](CCC(N)=O)C(=O)N[C@@H](CC(=O)O)C(=O)N[C@H](C(=O)N[C@@H](Cc1c[nH]cn1)C(=O)N[C@@H](CC(N)=O)C(=O)N[C@@H](Cc1ccccc1)C(=O)N[C@@H](CCCCNC(=O)c1ccc2c(c1)C1(OC2=O)c2ccc(N(C)C)cc2Oc2cc(N(C)C)ccc21)C(N)=O)C(C)C)C(C)C
CCR9 (Homo sapiens, UniProt P51686)	BRET	cell membranes	0.000187	CN(C)c1ccc2c(-c3ccc(C(=O)NCCCn4cc(COc5cc(C(=O)c6cc(Cl)ccc6NS(=O)(=O)c6ccc(C(C)(C)C)cc6)cc[n+]5[O-])nn4)cc3C(=O)[O-])c3ccc(=[N+](C)C)cc-3oc2c1
ACTA1	SPR	pH 7	0.0278	CC(C)[C@H](NC(=O)[C@H](CCCCN)NC(=O)[C@H](C)NC(=O)[C@H](CCCCN)NC(=O)CNC(=O)[C@H](CCCNC(=N)N)NC(=O)[C@@H](NC(=O)[C@H](CCCCN)NC(=O)[C@@H](N)CO)[C@@H](C)O)C(=O)N[C@H](C(=O)NCC(=O)N[C@@H](CCCNC(=N)N)C(=O)N[C@@H](Cc1c[nH]c2ccccc12)C(=O)N[C@@H](CCCCN)C(=O)O)[C@@H](C)O

Excerpt of the above:
target	assay	setting	koff [s⁻¹]	SMILES
CCR9 (Homo sapiens, UniProt P51686)	BRET	cell membranes	0.000187	CN(C)c1ccc2c(-c3ccc(C(=O)NCCCn4cc(COc5cc(C(=O)c6cc(Cl)ccc6NS(=O)(=O)c6ccc(C(C)(C)C)cc6)cc[n+]5[O-])nn4)cc3C(=O)[O-])c3ccc(=[N+](C)C)cc-3oc2c1
